{"data": "Measurements of several laboratories", "CSNK2A1": "Casein kinase II subunit alpha (CSNK2A1, Homo sapiens, UniProt P68400)", "note": "Protocols differ between the studies behind these lines. Numbers after ± are the reported error."}
{"Structure (SMILES)": "C=CC(=O)N1CCc2ccc(-n3c(=O)ccc4cnc5ccc(-c6cnn(C)c6)cc5c43)cc21", "target": "CSNK2A1", "test": "KINOMEscan", "setting": "1 µM", "how to read": "relative to: DMSO control", "quantity": "remaining binding", "result": "44%"}
{"Structure (SMILES)": "CN1CC[C@@H](COc2cnc(C#N)cc2-c2ccn3nc(NC(=O)C4CC4)cc3c2)C1", "target": "CSNK2A1", "test": "kinase activity", "setting": "1 µM, ATP10", "quantity": "inhibition", "result": "10%"}
{"Structure (SMILES)": "Cc1ccc(-c2c(/C=C(\\C#N)C(=O)NC(C)C)n(CCCO)c3ncnc(N)c23)cc1", "target": "CSNK2A1", "test": "cell-free assay, competition with immobilised ligand", "setting": "1 µM", "quantity": "remaining binding", "result": "100%"}
{"Structure (SMILES)": "COc1ccc(NC(=O)Nc2ccc3c(c2)C(=O)N(C(C)CO)CC(C)C(CN(C)Cc2ccc4c(c2)OCO4)O3)cc1 (stereo not shown)", "target": "CSNK2A1", "test": "kinase activity, KinaseProfiler", "setting": "0.03 µM, species human", "how to read": "relative to: control", "quantity": "remaining activity", "result": "101%"}
{"Structure (SMILES)": "CC(C)=CC1OC(C)(C)C2C=C3C(=O)C(Cl)=CC(O)C3C3C(O)C4OC4C(=O)C132 (stereo not shown)", "target": "CSNK2A1", "test": "cell-free assay, competition with immobilised ligand", "setting": "10 µM", "quantity": "remaining binding", "result": "73%"}
{"Structure (SMILES)": "CS(=O)(=O)Nc1cccc(-c2csc3cnc(Nc4ccc(N5CCN(CCCCCOc6cccc7c6C(=O)N(C6CCC(=O)NC6=O)C7=O)CC5)cc4)nc23)c1 (stereo not shown)", "target": "CSNK2A1", "test": "kinase probe labelling, binder, KiNativ ATP-acylphosphate LC-MS", "system": "MOLT-4 live cells", "setting": "1 µM", "quantity": "inhibition", "result": "-9.53%"}
{"Structure (SMILES)": "CN1CCN(Cc2ccc(-c3ccc(CO[C@H]4CCC[C@@H]4NC(=O)c4cc(-c5cnn(C)c5)cnc4N)cc3)cc2)CC1", "target": "CSNK2A1", "test": "enzyme activity, inhibitor", "setting": "0.1 µM", "quantity": "inhibition", "result": "12%"}
{"Structure (SMILES)": "C=CC(=O)N1Cc2nc(-c3cc(-c4cc(Cl)cnc4Cl)c(F)cc3F)n(-c3ccncn3)c2C1", "target": "CSNK2A1", "test": "cell-free assay, inhibitor", "setting": "1 µM", "quantity": "inhibition", "result": "5.7%"}
{"Structure (SMILES)": "CNC1C[S+]2CC[S+]3CC[S+](C1)[Ru-4]321([N]=C=S)[n]2c3ccc(OC)cc3c3c4c(c5cc(F)c[n+]1c5c32)C(=O)NC4=O (stereo not shown)", "target": "CSNK2A1", "test": "KinomeScan", "setting": "0.1 µM", "how to read": "relative to: untreated", "quantity": "remaining binding", "result": "97%"}
{"Structure (SMILES)": "COc1ccc(O)cc1-c1c[nH]c2ncc(-c3cncc(C(=O)N(C)C)c3)cc12", "target": "Casein kinase II subunit alpha, with CK2 beta (CSNK2A1, Homo sapiens, UniProt P68400)", "test": "KINOMEscan", "setting": "0.2 µM", "quantity": "inhibition", "result": "-1.06 ± 1.45%"}
{"Structure (SMILES)": "Cc1cccc(-c2ccc3nc(NC(=O)C4CCOCC4)nn3c2)c1", "target": "CSNK2A1", "test": "enzyme activity, Dundee kinase panel", "setting": "10 µM", "quantity": "remaining activity", "result": "106%"}
{"Structure (SMILES)": "NC(=O)[C@@H](O)C[C@H]1CCc2sc3ncnc(O[C@H]4CC[C@H](N5CCOCC5)CC4)c3c21", "target": "CSNK2A1", "test": "enzyme activity, inhibitor", "setting": "10 µM", "quantity": "inhibition", "result": "18%"}
{"Structure (SMILES)": "COc1cc(-n2cc3cc(F)cc(C(N)=O)c3n2)cc(Cl)c1C1CC(O)(CCO)Cc2ccccc21 (stereo not shown)", "target": "CSNK2A1", "test": "enzyme activity, inhibitor", "setting": "10 µM", "quantity": "inhibition", "result": "0.79%"}
{"Structure (SMILES)": "Cc1ccc(C)c(-c2ccc3nc(NC(=O)C4CCCCC4)nn3c2)c1", "target": "CSNK2A1", "test": "enzyme activity, Dundee kinase panel", "setting": "10 µM", "quantity": "remaining activity", "result": "104%"}
{"Structure (SMILES)": "CCN1CCN(Cc2ccc(C(=O)Nc3ccc(C)c(NCc4cnc5[nH]ccc5c4OC)c3)cc2C(F)(F)F)CC1", "target": "CSNK2A1", "test": "binding, competition with immobilised ligand", "setting": "1 µM", "quantity": "remaining binding", "result": "31%"}
{"Structure (SMILES)": "Nc1ncc(-c2cc(-c3cnn(CC(F)(F)F)c3)ncc2F)nc1C(=O)NC1CNCC(F)C1 (stereo not shown)", "target": "CSNK2A1", "test": "enzyme activity", "setting": "1 µM", "how to read": "relative to: DMSO control", "quantity": "remaining activity", "result": "101%"}
{"note": "Some of these lines once more:"}
{"Structure (SMILES)": "C=CC(=O)N1CCc2ccc(-n3c(=O)ccc4cnc5ccc(-c6cnn(C)c6)cc5c43)cc21", "target": "CSNK2A1", "test": "KINOMEscan", "setting": "1 µM", "how to read": "relative to: DMSO control", "quantity": "remaining binding", "result": "44%"}
